Measured values from different studies.
Numbers after ± are the reported error.
Kir3.1/Kir3.4: Kir3.1/Kir3.4 (Homo sapiens, UniProt P48544+P48549)
Chain of UniProt P48549 (whole entry, looked up): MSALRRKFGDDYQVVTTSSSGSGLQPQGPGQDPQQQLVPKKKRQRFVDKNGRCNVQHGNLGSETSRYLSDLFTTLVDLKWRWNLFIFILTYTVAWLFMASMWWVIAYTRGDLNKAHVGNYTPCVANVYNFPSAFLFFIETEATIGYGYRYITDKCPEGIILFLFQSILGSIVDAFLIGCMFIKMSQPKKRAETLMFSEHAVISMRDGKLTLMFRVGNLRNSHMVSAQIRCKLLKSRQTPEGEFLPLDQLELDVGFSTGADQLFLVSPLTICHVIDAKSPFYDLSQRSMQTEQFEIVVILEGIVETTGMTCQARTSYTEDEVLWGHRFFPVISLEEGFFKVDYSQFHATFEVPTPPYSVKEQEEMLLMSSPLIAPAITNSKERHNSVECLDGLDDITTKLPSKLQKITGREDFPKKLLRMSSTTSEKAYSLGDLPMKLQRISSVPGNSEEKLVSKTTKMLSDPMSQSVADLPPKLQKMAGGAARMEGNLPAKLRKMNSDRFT
Chain of UniProt P48544 (whole entry, looked up): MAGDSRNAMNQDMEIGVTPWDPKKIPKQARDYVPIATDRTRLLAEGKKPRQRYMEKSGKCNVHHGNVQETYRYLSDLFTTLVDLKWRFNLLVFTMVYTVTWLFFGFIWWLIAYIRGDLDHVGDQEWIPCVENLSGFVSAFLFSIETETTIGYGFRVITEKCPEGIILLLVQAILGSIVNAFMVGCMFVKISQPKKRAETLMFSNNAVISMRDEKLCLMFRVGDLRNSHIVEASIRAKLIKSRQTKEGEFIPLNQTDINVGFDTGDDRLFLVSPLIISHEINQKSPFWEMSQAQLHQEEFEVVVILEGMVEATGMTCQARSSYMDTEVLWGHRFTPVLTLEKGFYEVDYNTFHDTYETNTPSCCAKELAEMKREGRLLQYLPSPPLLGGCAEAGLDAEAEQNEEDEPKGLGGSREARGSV
USP16 ZnF-UBD domain: Ubiquitin carboxyl-terminal hydrolase 16, ZnF-UBD domain (USP16, Homo sapiens, UniProt Q9Y5T5)
Chain of UniProt Q9Y5T5 (whole entry, looked up): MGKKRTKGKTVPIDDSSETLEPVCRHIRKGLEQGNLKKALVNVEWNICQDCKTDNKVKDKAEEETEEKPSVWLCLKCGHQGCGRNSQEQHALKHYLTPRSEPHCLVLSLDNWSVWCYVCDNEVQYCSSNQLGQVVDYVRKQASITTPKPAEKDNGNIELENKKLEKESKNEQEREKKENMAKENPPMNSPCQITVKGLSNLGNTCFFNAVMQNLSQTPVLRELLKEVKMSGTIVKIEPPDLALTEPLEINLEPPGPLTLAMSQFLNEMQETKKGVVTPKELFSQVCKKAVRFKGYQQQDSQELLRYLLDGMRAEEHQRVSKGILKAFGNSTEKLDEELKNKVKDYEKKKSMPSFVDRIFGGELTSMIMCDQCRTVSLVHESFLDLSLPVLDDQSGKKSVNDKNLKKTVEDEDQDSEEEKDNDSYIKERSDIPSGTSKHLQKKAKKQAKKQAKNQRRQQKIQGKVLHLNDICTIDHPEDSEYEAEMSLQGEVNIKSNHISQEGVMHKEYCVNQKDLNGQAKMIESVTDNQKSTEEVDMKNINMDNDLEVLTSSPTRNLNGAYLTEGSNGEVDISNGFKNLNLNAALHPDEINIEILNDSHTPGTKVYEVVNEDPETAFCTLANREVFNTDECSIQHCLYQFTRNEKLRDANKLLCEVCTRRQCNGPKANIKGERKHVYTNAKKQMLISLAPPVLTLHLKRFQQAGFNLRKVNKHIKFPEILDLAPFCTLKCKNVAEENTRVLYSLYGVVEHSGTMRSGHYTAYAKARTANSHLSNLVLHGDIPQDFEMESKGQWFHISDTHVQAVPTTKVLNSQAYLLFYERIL
DNMT1: DNA (cytosine-5)-methyltransferase 1 (DNMT1, Homo sapiens, UniProt P26358)
Chain of UniProt P26358 (whole entry, looked up): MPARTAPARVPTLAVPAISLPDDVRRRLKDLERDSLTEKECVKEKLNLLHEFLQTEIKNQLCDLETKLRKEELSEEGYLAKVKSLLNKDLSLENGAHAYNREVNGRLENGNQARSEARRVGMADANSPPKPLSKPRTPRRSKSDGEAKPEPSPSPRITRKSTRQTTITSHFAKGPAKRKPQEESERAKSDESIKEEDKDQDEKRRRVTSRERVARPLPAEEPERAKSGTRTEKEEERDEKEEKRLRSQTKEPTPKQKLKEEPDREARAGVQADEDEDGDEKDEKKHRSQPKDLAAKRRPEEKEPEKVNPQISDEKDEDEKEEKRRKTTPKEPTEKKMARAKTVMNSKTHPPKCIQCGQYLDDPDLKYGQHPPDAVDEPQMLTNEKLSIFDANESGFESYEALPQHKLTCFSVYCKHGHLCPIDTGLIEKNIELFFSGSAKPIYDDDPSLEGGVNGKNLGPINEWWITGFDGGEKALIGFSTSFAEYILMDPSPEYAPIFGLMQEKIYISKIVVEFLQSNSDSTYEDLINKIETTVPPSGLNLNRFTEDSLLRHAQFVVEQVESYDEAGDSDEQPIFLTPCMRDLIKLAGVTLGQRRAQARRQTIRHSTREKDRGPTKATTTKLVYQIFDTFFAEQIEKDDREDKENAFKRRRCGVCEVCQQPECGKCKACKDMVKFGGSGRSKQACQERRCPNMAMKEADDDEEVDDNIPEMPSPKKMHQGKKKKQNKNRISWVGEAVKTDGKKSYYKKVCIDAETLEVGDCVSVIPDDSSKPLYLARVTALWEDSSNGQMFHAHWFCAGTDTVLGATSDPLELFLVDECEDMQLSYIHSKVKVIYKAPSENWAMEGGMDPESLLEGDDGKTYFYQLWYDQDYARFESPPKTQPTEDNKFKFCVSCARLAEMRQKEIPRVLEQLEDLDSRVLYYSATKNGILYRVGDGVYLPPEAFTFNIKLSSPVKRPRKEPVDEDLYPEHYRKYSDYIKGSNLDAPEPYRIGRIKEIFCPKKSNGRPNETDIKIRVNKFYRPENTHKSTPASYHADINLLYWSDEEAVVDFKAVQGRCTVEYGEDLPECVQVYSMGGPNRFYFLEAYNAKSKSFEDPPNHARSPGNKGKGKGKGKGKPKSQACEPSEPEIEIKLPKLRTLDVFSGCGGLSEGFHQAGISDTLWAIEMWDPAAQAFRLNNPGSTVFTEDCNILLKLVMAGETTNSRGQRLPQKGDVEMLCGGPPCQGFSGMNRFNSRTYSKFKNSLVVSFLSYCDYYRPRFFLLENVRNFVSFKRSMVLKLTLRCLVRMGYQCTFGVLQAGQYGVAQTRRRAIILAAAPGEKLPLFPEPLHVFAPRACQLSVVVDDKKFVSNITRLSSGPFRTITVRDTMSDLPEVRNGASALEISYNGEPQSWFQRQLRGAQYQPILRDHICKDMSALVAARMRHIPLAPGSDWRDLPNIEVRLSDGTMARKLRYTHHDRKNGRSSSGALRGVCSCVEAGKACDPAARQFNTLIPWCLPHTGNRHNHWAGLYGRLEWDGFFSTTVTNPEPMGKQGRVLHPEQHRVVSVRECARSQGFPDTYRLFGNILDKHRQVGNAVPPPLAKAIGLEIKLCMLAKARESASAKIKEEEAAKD
SLC18B1 M48A: MFS-type transporter SLC18B1 (SLC18B1, Homo sapiens, UniProt Q6NT16, M48A)
Chain of UniProt Q6NT16 (whole entry, unmodified, looked up): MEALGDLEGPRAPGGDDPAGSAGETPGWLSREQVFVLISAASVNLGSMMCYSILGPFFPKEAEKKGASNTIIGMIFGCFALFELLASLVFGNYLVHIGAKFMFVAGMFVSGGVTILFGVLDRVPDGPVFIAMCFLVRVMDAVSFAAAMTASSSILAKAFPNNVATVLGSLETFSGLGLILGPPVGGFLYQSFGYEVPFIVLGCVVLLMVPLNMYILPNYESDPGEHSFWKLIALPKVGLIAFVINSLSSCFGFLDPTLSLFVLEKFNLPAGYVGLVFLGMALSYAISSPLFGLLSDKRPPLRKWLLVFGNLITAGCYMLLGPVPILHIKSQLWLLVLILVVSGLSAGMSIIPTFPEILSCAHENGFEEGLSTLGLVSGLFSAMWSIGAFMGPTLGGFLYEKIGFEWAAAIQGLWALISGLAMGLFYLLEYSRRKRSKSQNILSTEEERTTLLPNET
Chain of UniProt Q99705 (whole entry, looked up): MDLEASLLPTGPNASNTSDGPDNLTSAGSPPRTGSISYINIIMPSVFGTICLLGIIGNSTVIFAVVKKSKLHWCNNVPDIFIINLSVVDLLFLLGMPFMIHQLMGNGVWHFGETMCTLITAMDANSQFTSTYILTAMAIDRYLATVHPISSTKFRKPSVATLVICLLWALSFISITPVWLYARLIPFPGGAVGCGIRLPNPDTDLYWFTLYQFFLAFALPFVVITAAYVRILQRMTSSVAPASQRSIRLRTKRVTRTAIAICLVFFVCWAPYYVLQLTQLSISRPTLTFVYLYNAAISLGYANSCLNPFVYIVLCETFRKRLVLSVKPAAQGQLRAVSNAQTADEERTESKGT
Chain of UniProt P28063 (whole entry, looked up): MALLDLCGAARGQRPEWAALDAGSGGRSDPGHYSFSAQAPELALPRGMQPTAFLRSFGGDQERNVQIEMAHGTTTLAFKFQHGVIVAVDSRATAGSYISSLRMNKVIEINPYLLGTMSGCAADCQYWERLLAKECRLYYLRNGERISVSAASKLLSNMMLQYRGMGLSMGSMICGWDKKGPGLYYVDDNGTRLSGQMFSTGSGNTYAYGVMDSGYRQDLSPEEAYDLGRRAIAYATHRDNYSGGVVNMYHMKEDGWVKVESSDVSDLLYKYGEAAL
Chain of UniProt O09061 (whole entry, looked up): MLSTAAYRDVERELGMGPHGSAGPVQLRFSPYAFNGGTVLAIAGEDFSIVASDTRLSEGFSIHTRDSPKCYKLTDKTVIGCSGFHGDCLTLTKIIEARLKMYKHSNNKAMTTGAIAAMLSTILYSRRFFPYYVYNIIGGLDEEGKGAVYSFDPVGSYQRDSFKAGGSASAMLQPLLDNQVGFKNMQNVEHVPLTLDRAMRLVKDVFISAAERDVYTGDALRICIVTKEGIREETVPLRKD

| SMILES | target or system | assay | system | setting | scale | quantity | value |
| --- | --- | --- | --- | --- | --- | --- | --- |
| O=C(COc1cc(Cl)ccc1Cl)Nc1cc(C2CCC2)nn1C1CCOCC1 | Kir3.1/Kir3.4 | activator, thallium flux | HEK293 | – | – | EC50 | 0.95 µM |
| O=C(O)CC1Oc2ccccc2NC1=O (stereo not shown) | USP16 ZnF-UBD domain | – | – | – | – | Kd | > 1000 µM |
| O=C(COc1ccc(C(F)(F)F)cc1C(F)(F)F)Nc1cc(C2CC2)nn1C1CCOCC1 | Kir3.1/Kir3.4 | activator, thallium flux | HEK293 | – | – | EC50 | 0.897 µM |
| CCc1c(C#N)c(SC(C(N)=O)c2ccccc2)nc(N2CCC(NC(=O)C(C)(C)C)CC2)c1C#N (stereo not shown) | DNMT1 | degrader, Western blot | HCT-116 | 24 h, range 0.01 to 1 µM | – | DC50 | < 0.05 µM |
| CC(C)C[C@H](NC(=O)[C@H](CCc1ccccc1)NC(=O)CN1CCOCC1)C(=O)N[C@@H](Cc1ccccc1)C(=O)N[C@@H](CC(C)C)C(=O)[C@@]1(C)CO1 | Proteasome subunit beta type-1/Psmb8, LMP7 subunit (Mus musculus, UniProt O09061+P28063) | proteasome subunit activity | Ba/F3 BCR-ABL1 T315I | 1 h pulse | – | IC50 | 0.00773 ± 0.0002 µM |
| COc1cc2c(cc1OC)[C@H]1C[C@@H](O)[C@H](CC(C)C)CN1CC2 | SLC18B1 M48A | binder | – | radiolabeled protein variants | – | Kd | 44.5 µM |
| O=C(COc1ccc(C(F)(F)F)cc1C(F)(F)F)Nc1cc(C2CCC2)nn1C1CCC(F)(F)CC1 | Kir3.1/Kir3.4 | activator, thallium flux | HEK293 | – | – | EC50 | 8.8 µM |
| CCCC[C@H](NC(=O)[C@H](C)c1c(C)[nH]c2ccc(O)cc12)c1ncc(-c2cc3ccccc3nc2OC)[nH]1 | MCHR1 (Homo sapiens, UniProt Q99705) | binding | – | – | – | Ki | 6.32 µM |
| O=C(O)CCN1C(=O)c2ccccc2S1(=O)=O | USP16 ZnF-UBD domain | – | – | – | – | Kd | > 1000 µM |
| N#Cc1ccc([C@H]2CCc3cncn32)c(F)c1 | Cytochrome P450 2D6 (CYP2D6, Homo sapiens, UniProt P10635) | inhibitor, item: bufuralol 1'-hydroxylation | pooled human liver microsomes | pH 7.4, added: bufuralol | – | Ki | 1.97 ± 0.397 µM |
| O=C(COc1ccc(Cl)cc1Cl)Nc1cc(C2CC2)nn1CC(F)(F)F | Kir3.1/Kir3.4 | activator, thallium flux | HEK293 | – | – | EC50 | 0.977 µM |
| CC(=O)O[C@H](CC(=O)[O-])C[N+](C)(C)C | – | binding, MIDAS equilibrium dialysis LC-MS | A2AR-BRIL thermostabilized | concentration not given | baseline: no-protein control | log2 fold change | -0.166 |
| O=C(O)CNc1ncccn1 | USP16 ZnF-UBD domain | – | – | – | – | Kd | > 1000 µM |
| CC/C=C\C/C=C\C/C=C\C/C=C\C/C=C\C/C=C\CCC(=O)O | Cytochrome P450 2J2 (CYP2J2, Homo sapiens, UniProt P51589, L2A) | enzyme activity, competitive inhibitor | – | nanodiscs with CPR, added: arachidonic acid | – | Ki | 16.5 ± 2.23 µM |
| Cc1ccc(C(C)C)cc1O | uncharacterized protein (Solanum tuberosum, UniProt M0ZZL3) | substrate inhibition | – | added: 100 µM UDP-glucose | – | Ki | 1280 ± 746 µM |
| O=C(O)Cn1cc2ccccc2n1 | USP16 ZnF-UBD domain | – | – | – | – | Kd | > 1000 µM |

| SMILES | target or system | assay | system | setting | scale | quantity | value |
| --- | --- | --- | --- | --- | --- | --- | --- |
| O=c1n(CCCN2CCN(c3cccc(Cl)c3)CC2)nc2ccccn12 | Nociceptin receptor (OPRL1, Homo sapiens, UniProt P41146) | – | – | – | – | Ki | > 10 µM |
| CCc1c(C#N)c(SC(C(N)=O)c2ccccc2)nc(N(C)CC(=O)NC)c1C#N (stereo not shown) | DNMT1 | degrader, Western blot | H1299 | 24 h | – | DC50 | 0.101 ± 0.011 µM |
| O=C(O)CSc1nnc(NC(=O)COc2ccccc2)s1 | USP16 ZnF-UBD domain | – | – | – | – | Kd | 372 µM |
| NCCCNCCCCNCCCN | SLC18B1 M48A | binder | – | – | – | Kd | 54 µM |
| CCc1cc(NC(=O)COc2cccc(Cl)c2Cl)n(CC(F)(F)F)n1 | Kir3.1/Kir3.4 | activator, thallium flux | HEK293 | – | – | EC50 | 1.07 µM |
| O=C(O)CCC(=O)c1cccs1 | USP16 ZnF-UBD domain | – | – | – | – | Kd | > 1000 µM |
| COc1cc(Nc2ncc3c(n2)-c2ccc(Cl)cc2C(c2c(F)cccc2OC)=NC3)ccc1C(=O)NCCOCCOCCNC(=O)COc1cccc2c1C(=O)N(C1CCC(=O)NC1=O)C2=O (stereo not shown) | STK17B (Homo sapiens, UniProt O94768) | binding, kinobead competition | MV4-11 cell lysate | – | – | EC50 | > 30 µM |
| Cc1c[nH]c(=O)[nH]c1=O | – | binding, MIDAS equilibrium dialysis LC-MS | A2AR-BRIL thermostabilized | concentration not given | baseline: no-protein control | log2 fold change | 0.327 |
| CCc1cc(/C(C)=N/OCc2ccc(C3CCCCC3)c(C(F)(F)F)c2)ccc1CN1CC(C(=O)O)C1 | SLCO1B3 (Homo sapiens, UniProt Q9NPD5) | inhibitor | HEK293 transfected with SLCO1B3 | 3 min, added: estradiol-17β-glucuronide 1 µM | – | Ki | 0.732 µM |
| CCCCN1CCC(COC(=O)c2ccc(N)c(OCF)c2)CC1 | GABA-A receptor (human recombinant) | binding | – | – | – | Ki | > 10 µM |
| CCc1c(C#N)c(SC(C(N)=O)c2ccccc2)nc(N2CCN(C(=O)c3ccco3)CC2)c1C#N (stereo not shown) | DNMT1 | degrader, Western blot | HCT-116 | 24 h, range 0.01 to 1 µM | – | DC50 | < 0.05 µM |
| N#Cc1c2n(c3c(=O)n(CC(=O)O)cnc13)CCCC2 | USP16 ZnF-UBD domain | – | – | – | – | Kd | 403 µM |
| Cn1cc(-c2ccc(-c3cncc(Cl)c3N3CCC4(CCNC4=O)CC3)cc2)cn1 | COLO 205 | gene expression, microarray, item: VLDLR mRNA | – | concentration not given, 6 h | baseline: untreated cells | log2 fold change | 1.37 |
| CCCNC(=O)C(Sc1nc(N2CCC(N)CC2)c(C#N)c(CC)c1C#N)c1ccccc1 (stereo not shown) | DNMT1 | degrader, Western blot | HCT-116 | 24 h, range 0.01 to 1 µM | – | DC50 | > 1 µM |
| Cc1cc(NC(=O)CCC(=O)O)nn1C | USP16 ZnF-UBD domain | – | – | – | – | Kd | 193 µM |
